# Experimental data gathered from unrelated publications.
# Each line is one published result; not all experiments were run side by side.
# OPRM1: Mu-type opioid receptor (OPRM1, Homo sapiens, UniProt P35372)
# UniProt P35372, sequence (whole entry, unmodified, looked up): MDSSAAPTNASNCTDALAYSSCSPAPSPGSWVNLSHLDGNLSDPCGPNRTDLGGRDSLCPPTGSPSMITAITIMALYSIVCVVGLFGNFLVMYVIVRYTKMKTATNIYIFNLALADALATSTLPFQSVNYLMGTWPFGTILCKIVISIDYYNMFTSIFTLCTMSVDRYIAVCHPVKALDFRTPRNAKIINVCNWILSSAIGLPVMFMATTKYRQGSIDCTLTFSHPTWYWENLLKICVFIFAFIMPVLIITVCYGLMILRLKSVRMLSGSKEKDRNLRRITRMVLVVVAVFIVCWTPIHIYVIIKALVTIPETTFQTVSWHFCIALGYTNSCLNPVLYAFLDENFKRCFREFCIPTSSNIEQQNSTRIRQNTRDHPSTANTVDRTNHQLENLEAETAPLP
Compound,target,test,setting,how to read,measurement,result
Cc1cc(O)cc(C)c1C[C@H](N)C(=O)N1Cc2ccccc2C[C@H]1C(=O)NCC(=O)NCc1ccccc1,OPRM1,"GTPγS binding, agonist, radiometric",cell membranes,,Emax,84%
CC(C)[C@H]1CC[C@H](N2CC[C@@](C)(c3cccc(O)c3)[C@@H](C)C2)CC1,OPRM1,agonist,,,efficacy,0%
C[C@@H](NC(=O)[C@@H](N)Cc1ccc(O)cc1)C(=O)NCC(=O)N(C)[C@@H](Cc1ccccc1)C(=O)NCCO,OPRM1,"GTPγS binding, agonist, radiometric",cell membranes,,Emax,130%
C[C@@H](O)[C@H](NC(=O)[C@H]1NC(=O)[C@H]([C@@H](C)O)NC(=O)[C@H](CCCN)NC(=O)[C@@H](Cc2c[nH]c3ccccc23)NC(=O)[C@H](Cc2ccc(O)cc2)NC(=O)[C@@H](NC(=O)[C@H](N)Cc2ccccc2)CSSC1(C)C)C(N)=O,"Mu-type opioid receptor (OPRM1, Homo sapiens, UniProt P35372, C348A/C353A)",,concentration not given,relative to: OPRM1 over human MOR,binding affinity increase,≥ 10 fold
"COC(=O)C1C(OC(c2ccc(Cl)cc2)c2ccc(Cl)cc2)CC2CCC1N2C (single isomer, unassigned)",OPRM1,binding,"10000 nM, with: [3H]diprenorphine",,displacement,inactive
C[C@@H](Cc1ccsc1)NC(=O)NC[C@H](Cc1ccc(O)cc1)N(C)C,"Mu-type opioid receptor, with Gi/o/z proteins (OPRM1, Homo sapiens, UniProt P35372)","receptor activation, agonist",,,Emax,67 to 89%
"CCOC(=O)C1C(OC(c2ccc(Cl)cc2)c2ccc(Cl)cc2)CC2CCC1N2C (single isomer, unassigned)",OPRM1,binding,"10000 nM, with: [3H]diprenorphine",,displacement,inactive
Cc1cc(O)cc(C)c1C[C@H](N)C(=O)N[C@@H]1CSSC[C@@H](NC(=O)[C@@H](N)Cc2c(C)cc(O)cc2C)C(=O)NCC(=O)N[C@@H](Cc2ccccc2)C(=O)NNC(=O)[C@H](Cc2ccccc2)NC(=O)CNC1=O,OPRM1,"GTPγS binding, agonist, radiometric",cell membranes,,Emax,78%

# Excerpt of the above:
Compound,target,test,setting,how to read,measurement,result
C[C@@H](O)[C@H](NC(=O)[C@H]1NC(=O)[C@H]([C@@H](C)O)NC(=O)[C@H](CCCN)NC(=O)[C@@H](Cc2c[nH]c3ccccc23)NC(=O)[C@H](Cc2ccc(O)cc2)NC(=O)[C@@H](NC(=O)[C@H](N)Cc2ccccc2)CSSC1(C)C)C(N)=O,"Mu-type opioid receptor (OPRM1, Homo sapiens, UniProt P35372, C348A/C353A)",,concentration not given,relative to: OPRM1 over human MOR,binding affinity increase,≥ 10 fold
